Published values collected from several papers.
Every numbered part comes from another study and shows a few of its results, in no order. Positions count from the first letter of the parent shown.

Set 1
Target: ABI1, truncated, D143A, DHFR fusion (Arabidopsis thaliana)
Method: DHFR PCA, deep sequencing
Matrix: yeast
Notes: methotrexate growth selection, single substitutions
Together with: (+)-ABA 17 µM
Reference: wild-type fitted maximum
Reading: higher = stronger binding
Parent: PYL1, truncated, DHFR fusion (Arabidopsis thaliana); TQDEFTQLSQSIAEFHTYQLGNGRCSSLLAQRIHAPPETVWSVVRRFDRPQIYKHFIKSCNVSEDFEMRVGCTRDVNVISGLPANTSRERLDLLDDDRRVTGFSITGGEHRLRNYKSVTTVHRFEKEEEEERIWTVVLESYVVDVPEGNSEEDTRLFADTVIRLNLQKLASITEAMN
Variant | relative binding score
L20P | 88.1%
E129M | 78%
L94K | -1.84%
R49L | 55.8%
L28T | 58.1%
K54Y | -2.48%
V62L | 79.7%
P36W | 33.5%
E67P | 71.9%
G148W | 19.8%
M68Q | 59.4%
D65S | 75.9%
N22D | 85.7%
I133S | 96.6%
Q19V | 81.3%
T120K | 1.91%
L20R | 83%
E109P | 14.2%
T17I | 37.9%
E127Q | 95%
E139V | 77.3%
W41Q | -21.9%

Set 2
Target: Histone acetyltransferase KAT6A, winged helix 1, GST fusion (KAT6A, Homo sapiens, UniProt Q92794, residues 1-85)
Method: protein binding microarray
Form: double-stranded DNA, one strand shown
Matrix: in vitro
Concentration: not given
Notes: 8-mer, flanks averaged, mean of 2 arrays, mostly near background
Reference: not given
Reading: higher = stronger binding
Target sequence (chain): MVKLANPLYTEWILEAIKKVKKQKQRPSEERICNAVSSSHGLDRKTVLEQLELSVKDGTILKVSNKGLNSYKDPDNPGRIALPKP
Oligonucleotide | E-score
ATTGGATG | -0.237
TAAATACA | -0.102
CAGTCTCA | -0.127
AATACAGC | -0.117
CCACTAGC | -0.0348
CCTCTGCG | 0.00703
AGGTCTAG | -0.123
AGCCTTTG | -0.172
AGTAATTC | 0.087
CCTGGTCG | -0.0174
CGGCCAAC | 0.191
CCCAACGA | -0.128
TATGTCAA | -0.0681
GCGTTCAA | 0.00645
TCAGCCAA | -0.185
TCGTCACA | -0.0307
CTTCAAAA | -0.304
TCGGCAAA | 0.116
CACGCAGC | 0.206
AGTACCTG | -0.17
CAGATGCG | -0.0182

Set 3
Target: PABPC1L2, full length, GST fusion (mouse, UniProt A0ABA7IW68)
Method: RNAcompete
Form: RNA
Matrix: in vitro
Concentration: 20 nM
Notes: 7-mer, probes averaged, single round
Reference: mean of 7-mers
Reading: higher = stronger binding
Construct (chain): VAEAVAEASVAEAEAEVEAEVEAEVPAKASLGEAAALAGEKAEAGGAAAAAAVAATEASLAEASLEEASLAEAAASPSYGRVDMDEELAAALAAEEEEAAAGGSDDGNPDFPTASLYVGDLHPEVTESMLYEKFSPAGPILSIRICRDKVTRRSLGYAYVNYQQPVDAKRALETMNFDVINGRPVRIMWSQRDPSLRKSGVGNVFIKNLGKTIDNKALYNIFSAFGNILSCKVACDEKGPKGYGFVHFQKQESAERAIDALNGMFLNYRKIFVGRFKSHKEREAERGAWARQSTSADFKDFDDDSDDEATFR
Oligonucleotide | 7-mer Z-score
CUCUUAU | -0.248
CAAGGAC | 0.263
CCCCUGA | -0.257
AGCGGUU | 0.0116
ACGUAUA | 0.142
CUUAGGC | -0.306
CUUUCCC | -0.367
CCAACGC | -0.298
ACCGUCU | -0.237
GAACCCG | -0.173
ACCGUGA | -0.0953
UCCGAUU | -0.311
GCUCCUC | -0.414
CUUCGAU | -0.135
CGCGAUU | -0.2
UGAAGCG | -0.0373
AUUGGUG | -0.0989
GUCUUGU | -0.445
AUGCUCA | -0.211
GCUCGGU | -0.219
CGUGUUG | -0.296
CGUUCGG | -0.344
CAUCACA | -0.00289
GUACCAA | 0.0261
GCCACGU | -0.164

Set 4
Target: CCND3, cyclin fold, Cln2 fusion (human)
Method: yeast growth competition, sequencing
Matrix: yeast
Notes: weak parent motif
Reference: not given
Reading: higher = stronger binding
Parent: CDC25A docking peptide (human); PPHRRRLLFACSP; partner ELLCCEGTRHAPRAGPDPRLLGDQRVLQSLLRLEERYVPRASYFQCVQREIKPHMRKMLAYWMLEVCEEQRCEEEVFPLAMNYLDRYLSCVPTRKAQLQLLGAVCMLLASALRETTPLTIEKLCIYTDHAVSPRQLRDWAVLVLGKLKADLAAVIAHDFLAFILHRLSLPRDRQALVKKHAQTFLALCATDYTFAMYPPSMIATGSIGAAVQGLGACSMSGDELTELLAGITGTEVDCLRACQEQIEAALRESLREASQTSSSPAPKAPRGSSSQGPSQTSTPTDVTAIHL
Variant | normalised enrichment score
PPHRRQLLFACSP [R6Q] | 0.185
PIHRRRLLFACSP [P2I] | 0.145
PPHRRRLLFACSN [P13N] | 0.151
PAHRRRLLFACSP [P2A] | 0.165
PPHRRRLLFAASP [C11A] | 0.177
PPHRRRLLFAPSP [C11P] | 0.146
PPMRRRLLFACSP [H3M] | 0.145
PPIRRRLLFACSP [H3I] | 0.117
PPHRRRCLFACSP [L7C] | 0.147
FPHRRRLLFACSP [P1F] | 0.0653
PPHRRRLLFDCSP [A10D] | 0.0931
PPHRLRLLFACSP [R5L] | 0.198
WPHRRRLLFACSP [P1W] | 0.146
PPPRRRLLFACSP [H3P] | 0.0755
PPHRRRILFACSP [L7I] | 0.179
PPHRRRLLFAYSP [C11Y] | 0.0892
PPHSRRLLFACSP [R4S] | 0.00134
PQHRRRLLFACSP [P2Q] | 0.215
PPHRRRRLFACSP [L7R] | 0.0893
PPHRRRLPFACSP [L8P] | 0.0758

Set 5
Target: Fragile X messenger ribonucleoprotein 1, C-terminal low-complexity region (Fmr1, Mus musculus, UniProt P35922)
Method: RNA Bind-n-Seq
Form: RNA
Matrix: in vitro
Concentration: 200 nM
Notes: whole 134-nt RNA, ends assumed
Together with: 150 mM LiCl
Reference: input library
Reading: higher = stronger binding
All molecules: 7-deaza-guanosine replaces G
All sequences stand within: GGGAGUUCUACAGUCCGACGAUC … UGGAAUUCUCGGGUGUCAAGG
Oligonucleotide | log2 enrichment
UGGGAGGUGGAUUUUGUUUAUUUCUUUAGCUCAUUUCCAGGGGUGGGAAUUUUUUUUUAAUAUGUGUCAUGAAUAAAGUUGUUUUUGAAA | -0.792
ACCAUGCAGGUGGGCAUCUUUGGGAAGUGGGGCAAGGGGGGGAUAGGGAUGGGGGUAACACUUUGGGAACAGGUGGUCCCAGGUCGUUUC | 1.07
AAGUCCUGUGCUACACAUCGUAUGUACCGAAUCGGGUGGGUUUUUGGGAAAAAGGGAAAGUAUUAUGUUACGCCGUUCGGAUCUGCACUU | -0.638
CUCAAGUCCUGUGCUACACAUCGUAUGUACCGAAUCGGGGUGGGUGGGUGGGGAAAGUAUUAUGUUACGCCGUUCGGAUCUGCACUUCCA | -1.25
ACCAUGCAGGUGGGCAUCUUUGGGAAGUGGGGCAAGGGGGGGAUAGGUAGGGGGGUAACACUUUGGGAACAGGUGGUCCCAGGUCGUUUC | 1.43
AAGUCCUGUGCUACACAUCGUAUGUACCGAAUCGGGAAAAAAAGGGUUUGGGAGGGAAAGUAUUAUGUUACGCCGUUCGGAUCUGCACUU | -1.69
AAGUCCUGUGCUACACAUCGUAUGUACCGAAUCGGGAGGGUUUUUGGGAAAAAGGGAAAGUAUUAUGUUACGCCGUUCGGAUCUGCACUU | -0.492
CUGUGCUACACAUCGUAUGUACCGAAUCGGCCCCCCCGGGGCCCCCCCGGGCCCCCCCGGGAAAGUAUUAUGUUACGCCGUUCGGAUCUG | -1.86

Some of these lines once more (set 5):
Oligonucleotide | log2 enrichment
UGGGAGGUGGAUUUUGUUUAUUUCUUUAGCUCAUUUCCAGGGGUGGGAAUUUUUUUUUAAUAUGUGUCAUGAAUAAAGUUGUUUUUGAAA | -0.792
ACCAUGCAGGUGGGCAUCUUUGGGAAGUGGGGCAAGGGGGGGAUAGGGAUGGGGGUAACACUUUGGGAACAGGUGGUCCCAGGUCGUUUC | 1.07
AAGUCCUGUGCUACACAUCGUAUGUACCGAAUCGGGUGGGUUUUUGGGAAAAAGGGAAAGUAUUAUGUUACGCCGUUCGGAUCUGCACUU | -0.638
CUCAAGUCCUGUGCUACACAUCGUAUGUACCGAAUCGGGGUGGGUGGGUGGGGAAAGUAUUAUGUUACGCCGUUCGGAUCUGCACUUCCA | -1.25
ACCAUGCAGGUGGGCAUCUUUGGGAAGUGGGGCAAGGGGGGGAUAGGUAGGGGGGUAACACUUUGGGAACAGGUGGUCCCAGGUCGUUUC | 1.43
AAGUCCUGUGCUACACAUCGUAUGUACCGAAUCGGGAAAAAAAGGGUUUGGGAGGGAAAGUAUUAUGUUACGCCGUUCGGAUCUGCACUU | -1.69
AAGUCCUGUGCUACACAUCGUAUGUACCGAAUCGGGAGGGUUUUUGGGAAAAAGGGAAAGUAUUAUGUUACGCCGUUCGGAUCUGCACUU | -0.492
CUGUGCUACACAUCGUAUGUACCGAAUCGGCCCCCCCGGGGCCCCCCCGGGCCCCCCCGGGAAAGUAUUAUGUUACGCCGUUCGGAUCUG | -1.86
